Results of several laboratories.
Each numbered part is a random draw from the data of one study; scales do not carry over between parts.
Sequence of UniProt Q84WU6 (whole entry, looked up): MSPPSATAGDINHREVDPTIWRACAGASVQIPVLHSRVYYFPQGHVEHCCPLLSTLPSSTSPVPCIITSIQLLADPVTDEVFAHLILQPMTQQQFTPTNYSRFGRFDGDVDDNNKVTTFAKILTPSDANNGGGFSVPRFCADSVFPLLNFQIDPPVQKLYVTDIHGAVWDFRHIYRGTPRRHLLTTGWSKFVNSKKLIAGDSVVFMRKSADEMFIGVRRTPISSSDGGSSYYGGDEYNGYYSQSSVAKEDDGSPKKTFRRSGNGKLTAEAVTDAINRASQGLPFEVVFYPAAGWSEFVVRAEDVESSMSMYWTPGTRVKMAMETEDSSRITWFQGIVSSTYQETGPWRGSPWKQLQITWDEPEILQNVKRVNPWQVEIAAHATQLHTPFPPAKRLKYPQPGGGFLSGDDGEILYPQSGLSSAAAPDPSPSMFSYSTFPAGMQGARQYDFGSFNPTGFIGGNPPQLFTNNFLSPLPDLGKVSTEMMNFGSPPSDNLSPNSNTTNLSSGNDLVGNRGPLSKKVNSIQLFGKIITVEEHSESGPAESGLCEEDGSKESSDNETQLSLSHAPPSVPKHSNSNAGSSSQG
Sequence of UniProt Q9ZTX8 (whole entry, looked up): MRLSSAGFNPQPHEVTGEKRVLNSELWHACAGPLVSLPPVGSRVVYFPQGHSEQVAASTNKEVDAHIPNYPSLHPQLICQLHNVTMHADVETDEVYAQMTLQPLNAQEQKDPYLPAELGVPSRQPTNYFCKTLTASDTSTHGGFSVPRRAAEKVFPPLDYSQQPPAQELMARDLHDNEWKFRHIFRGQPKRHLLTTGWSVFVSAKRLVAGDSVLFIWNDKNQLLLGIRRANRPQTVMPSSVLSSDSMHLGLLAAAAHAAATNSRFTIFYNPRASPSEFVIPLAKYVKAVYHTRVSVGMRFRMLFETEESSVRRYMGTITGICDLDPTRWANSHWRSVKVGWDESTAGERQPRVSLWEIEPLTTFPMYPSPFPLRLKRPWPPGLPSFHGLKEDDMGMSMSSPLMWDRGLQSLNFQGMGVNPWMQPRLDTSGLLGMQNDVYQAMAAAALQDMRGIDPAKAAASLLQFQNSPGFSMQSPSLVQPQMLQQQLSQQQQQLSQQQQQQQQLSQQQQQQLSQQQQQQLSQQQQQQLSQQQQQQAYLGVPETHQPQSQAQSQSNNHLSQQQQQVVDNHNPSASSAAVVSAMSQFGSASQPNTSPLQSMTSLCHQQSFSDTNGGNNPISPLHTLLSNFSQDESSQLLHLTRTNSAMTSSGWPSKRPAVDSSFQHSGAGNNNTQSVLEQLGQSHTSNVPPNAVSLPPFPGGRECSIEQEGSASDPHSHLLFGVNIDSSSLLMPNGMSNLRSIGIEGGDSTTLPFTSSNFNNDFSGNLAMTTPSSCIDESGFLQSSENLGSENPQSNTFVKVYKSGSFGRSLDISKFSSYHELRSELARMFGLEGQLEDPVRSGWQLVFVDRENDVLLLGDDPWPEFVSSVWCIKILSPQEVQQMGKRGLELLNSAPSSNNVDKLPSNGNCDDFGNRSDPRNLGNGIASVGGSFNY
Sequence of UniProt O23661 (whole entry, looked up): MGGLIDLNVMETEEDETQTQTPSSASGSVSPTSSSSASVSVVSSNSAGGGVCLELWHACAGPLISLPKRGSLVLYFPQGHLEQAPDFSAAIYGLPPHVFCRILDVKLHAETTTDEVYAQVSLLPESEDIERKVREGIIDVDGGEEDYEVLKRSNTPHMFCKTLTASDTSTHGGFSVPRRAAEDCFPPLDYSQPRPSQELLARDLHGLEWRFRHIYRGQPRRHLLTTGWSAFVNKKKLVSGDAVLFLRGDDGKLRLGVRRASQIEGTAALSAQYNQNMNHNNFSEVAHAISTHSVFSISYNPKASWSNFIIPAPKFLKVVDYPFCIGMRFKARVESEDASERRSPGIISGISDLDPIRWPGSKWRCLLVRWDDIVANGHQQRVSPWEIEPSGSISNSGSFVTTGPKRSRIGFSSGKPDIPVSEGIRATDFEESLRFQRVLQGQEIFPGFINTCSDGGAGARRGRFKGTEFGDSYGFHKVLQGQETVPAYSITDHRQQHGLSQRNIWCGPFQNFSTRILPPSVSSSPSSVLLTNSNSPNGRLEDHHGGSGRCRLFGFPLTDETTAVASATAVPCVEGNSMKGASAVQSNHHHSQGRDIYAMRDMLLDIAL
Sequence of UniProt Q8TDR2 (whole entry, looked up): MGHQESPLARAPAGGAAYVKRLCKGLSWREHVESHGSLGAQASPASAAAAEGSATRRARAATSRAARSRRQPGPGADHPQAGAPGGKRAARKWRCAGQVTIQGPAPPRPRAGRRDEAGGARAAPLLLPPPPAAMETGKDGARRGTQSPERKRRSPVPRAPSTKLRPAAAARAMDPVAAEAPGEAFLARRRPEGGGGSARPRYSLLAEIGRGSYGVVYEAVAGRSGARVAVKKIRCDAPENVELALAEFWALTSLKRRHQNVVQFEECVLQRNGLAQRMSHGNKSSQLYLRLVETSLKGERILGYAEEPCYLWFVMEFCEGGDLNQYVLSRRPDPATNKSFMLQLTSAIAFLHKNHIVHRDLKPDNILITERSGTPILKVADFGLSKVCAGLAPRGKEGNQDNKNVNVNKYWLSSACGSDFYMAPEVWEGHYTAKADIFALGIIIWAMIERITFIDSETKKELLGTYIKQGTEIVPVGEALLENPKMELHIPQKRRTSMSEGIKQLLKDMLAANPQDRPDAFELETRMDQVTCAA
Sequence of UniProt Q8RYC8 (whole entry, looked up): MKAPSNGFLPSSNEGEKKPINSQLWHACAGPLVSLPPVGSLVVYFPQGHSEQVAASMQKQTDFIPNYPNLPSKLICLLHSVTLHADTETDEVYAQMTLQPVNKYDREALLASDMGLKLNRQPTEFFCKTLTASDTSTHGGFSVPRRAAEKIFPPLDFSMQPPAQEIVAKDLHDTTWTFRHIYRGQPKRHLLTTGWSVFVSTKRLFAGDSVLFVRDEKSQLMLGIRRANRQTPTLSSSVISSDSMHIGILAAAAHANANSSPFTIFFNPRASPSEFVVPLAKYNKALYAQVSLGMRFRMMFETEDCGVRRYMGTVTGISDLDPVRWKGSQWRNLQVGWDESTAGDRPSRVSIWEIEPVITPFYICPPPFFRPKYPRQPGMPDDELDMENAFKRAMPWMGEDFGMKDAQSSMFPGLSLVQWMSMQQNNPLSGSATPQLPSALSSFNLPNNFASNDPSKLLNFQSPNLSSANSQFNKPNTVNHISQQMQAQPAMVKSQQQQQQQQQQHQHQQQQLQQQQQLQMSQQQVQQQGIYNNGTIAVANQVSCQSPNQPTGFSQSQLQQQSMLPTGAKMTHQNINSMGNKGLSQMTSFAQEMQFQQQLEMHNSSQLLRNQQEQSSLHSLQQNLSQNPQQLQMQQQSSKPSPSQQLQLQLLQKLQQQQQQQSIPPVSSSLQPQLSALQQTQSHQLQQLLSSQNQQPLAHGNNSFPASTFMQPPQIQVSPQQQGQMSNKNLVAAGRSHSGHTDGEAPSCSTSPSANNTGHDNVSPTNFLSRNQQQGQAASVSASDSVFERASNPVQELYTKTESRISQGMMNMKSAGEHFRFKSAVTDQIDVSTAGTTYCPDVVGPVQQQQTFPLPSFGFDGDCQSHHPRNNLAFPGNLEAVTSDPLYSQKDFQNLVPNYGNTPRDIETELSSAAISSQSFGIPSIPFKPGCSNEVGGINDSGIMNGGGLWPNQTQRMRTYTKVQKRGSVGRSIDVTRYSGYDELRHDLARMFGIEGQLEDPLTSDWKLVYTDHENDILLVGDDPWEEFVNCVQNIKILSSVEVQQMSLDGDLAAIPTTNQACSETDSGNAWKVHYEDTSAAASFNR
Sequence of UniProt O24407 (whole entry, looked up): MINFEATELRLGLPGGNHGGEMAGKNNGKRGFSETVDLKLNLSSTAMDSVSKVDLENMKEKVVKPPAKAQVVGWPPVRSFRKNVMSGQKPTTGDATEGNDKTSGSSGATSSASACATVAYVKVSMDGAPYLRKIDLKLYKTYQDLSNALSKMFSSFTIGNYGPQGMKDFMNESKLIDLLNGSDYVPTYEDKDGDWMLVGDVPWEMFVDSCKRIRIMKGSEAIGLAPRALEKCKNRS
Sequence of UniProt Q9M1R4 (whole entry, looked up): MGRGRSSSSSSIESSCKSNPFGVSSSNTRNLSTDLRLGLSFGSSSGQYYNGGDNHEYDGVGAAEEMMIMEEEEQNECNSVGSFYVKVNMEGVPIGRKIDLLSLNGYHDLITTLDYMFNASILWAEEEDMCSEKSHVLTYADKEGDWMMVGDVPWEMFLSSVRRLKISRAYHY
Sequence of UniProt O24408 (whole entry, looked up): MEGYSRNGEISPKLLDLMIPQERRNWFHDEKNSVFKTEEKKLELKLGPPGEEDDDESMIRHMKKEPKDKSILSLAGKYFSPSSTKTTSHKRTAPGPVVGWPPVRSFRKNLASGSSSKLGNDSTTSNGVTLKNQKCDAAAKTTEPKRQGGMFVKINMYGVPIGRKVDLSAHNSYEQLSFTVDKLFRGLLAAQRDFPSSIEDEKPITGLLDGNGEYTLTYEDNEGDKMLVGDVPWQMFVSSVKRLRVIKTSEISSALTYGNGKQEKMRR

Set 1
Target: PABPC1L2, full length, GST fusion (mouse, UniProt A0ABA7IW68)
Technique: RNAcompete
Molecule type: RNA
Matrix: in vitro
Concentration: 20 nM
Notes: 7-mer, probes averaged, single round
Reference: mean of 7-mers
Direction: higher = stronger binding
Target sequence (chain): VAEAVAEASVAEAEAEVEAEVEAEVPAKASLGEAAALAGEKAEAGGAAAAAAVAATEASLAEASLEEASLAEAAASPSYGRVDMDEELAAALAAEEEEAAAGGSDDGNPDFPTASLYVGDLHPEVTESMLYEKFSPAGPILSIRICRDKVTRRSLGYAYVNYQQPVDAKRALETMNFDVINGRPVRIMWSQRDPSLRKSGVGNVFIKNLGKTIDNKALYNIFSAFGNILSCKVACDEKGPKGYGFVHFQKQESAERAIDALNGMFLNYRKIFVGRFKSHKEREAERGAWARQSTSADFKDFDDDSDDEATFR
Strand	7-mer Z-score
UUCUGUG	-0.45
AAGAAGG	0.693
CGCCUCG	-0.367
CACAGAG	-0.0047
UACAGAC	-0.155
CAUAGAC	-0.157
AUGCUCU	-0.242
UAUACCC	-0.403

Set 2
Target: Protein C-ets-1 (ETS1, Homo sapiens, UniProt P14921, residues 1-441, Y397A, full length assumed)
Sequence of UniProt P14921 (whole entry, unmodified, looked up): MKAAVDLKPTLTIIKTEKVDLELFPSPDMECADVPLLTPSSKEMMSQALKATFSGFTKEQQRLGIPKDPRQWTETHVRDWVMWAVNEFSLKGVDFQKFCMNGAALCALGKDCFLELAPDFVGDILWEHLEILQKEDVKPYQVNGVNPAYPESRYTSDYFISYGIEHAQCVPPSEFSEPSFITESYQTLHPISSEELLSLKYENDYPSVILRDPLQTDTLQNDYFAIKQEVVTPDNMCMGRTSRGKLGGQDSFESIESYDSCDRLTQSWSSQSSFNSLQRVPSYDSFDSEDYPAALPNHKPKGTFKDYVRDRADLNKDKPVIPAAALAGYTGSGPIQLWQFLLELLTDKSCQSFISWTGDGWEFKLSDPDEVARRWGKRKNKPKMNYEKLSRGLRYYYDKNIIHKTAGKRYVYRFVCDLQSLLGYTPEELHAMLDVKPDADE
Technique: protein-binding microarray
Molecule type: double-stranded DNA, one strand shown
Matrix: in vitro
Concentration: not given
Notes: k-mer, scored over probes, only values ≥0.25
Direction: higher = stronger binding
Strand	E-score
CTGCCAAA	0.33
CTGCCAAC	0.268
TGCGGCAA	0.26
GCCCCTCC	0.427
GTTTGCAA	0.322
ACGTACAA	0.303
TAGGCAAA	0.279
AGCAAACG	0.32

Set 3
Sequence: B1 (IAA15)
Technique: two-hybrid
Direction: higher = firmer interaction
B1: IAA15 (Arabidopsis thaliana, UniProt Q9C966); chain MSPEEYVRVWPDSGDLGGTELTLALPGTPTNASEGPKKFGNKRRFLETVDLKLGEAHENNYISSMVTNDQLVGWPPVATARKTVRRKYVKVALDGAAYLRKVDLGMYDCYGQLFTALENMFQGIITICRVTELERKGEFVATYEDKDGDLMLVGDVPWMMFVESCKRMRLMKTGDAIGL
partner	notes	reference	positive tests
ARF8 699-811 (Arabidopsis thaliana, UniProt Q9FGV1)		out of 2 tests	2
ETT (Arabidopsis thaliana, UniProt O23661)		out of 2 tests	0
ARF17 (Arabidopsis thaliana, UniProt Q84WU6)	weak activation fusion	out of 4 tests	0
IAA16 (Arabidopsis thaliana, UniProt O24407)		out of 4 tests	2
IAA18 (Arabidopsis thaliana, UniProt O24408)		out of 2 tests	2
ARF19 948-1086 (Arabidopsis thaliana, UniProt Q8RYC8)		out of 2 tests	2
IAA30 (Arabidopsis thaliana, UniProt Q9M1R4)	weak activation fusion	out of 4 tests	3
ARF6 790-935 (Arabidopsis thaliana, UniProt Q9ZTX8)		out of 4 tests	4

Further values, each from its own experiment
SMILES	target	observed	technique	concentration	quantity	result
O=C(NS(=O)(=O)c1ccc(NCC2CCOCC2)c([N+](=O)[O-])c1)c1ccc(N2CCN(Cc3ccc(C(F)(F)F)cc3-c3ccc(Cl)cc3)CC2)cc1Oc1cnc2[nH]ccc2c1	Serine/threonine-protein kinase 35 (STK35, Homo sapiens, UniProt Q8TDR2)	cell-free assay	competition with immobilised ligand	1 µM	remaining binding	95%

Repeated from above (set 1):
Strand	7-mer Z-score
AUGCUCU	-0.242
UACAGAC	-0.155
UAUACCC	-0.403
